Results pooled from the literature.
“And” joins repeats or separate records; there may be more than shown. Numbers after ± are the reported error.
ALB: Albumin (ALB, Bos taurus, UniProt P02769)

By UniProt entry, the sequences of proteins in these tests, tags left out. Residues count along the entry.
UniProt P02769, 25-607 limits assumed: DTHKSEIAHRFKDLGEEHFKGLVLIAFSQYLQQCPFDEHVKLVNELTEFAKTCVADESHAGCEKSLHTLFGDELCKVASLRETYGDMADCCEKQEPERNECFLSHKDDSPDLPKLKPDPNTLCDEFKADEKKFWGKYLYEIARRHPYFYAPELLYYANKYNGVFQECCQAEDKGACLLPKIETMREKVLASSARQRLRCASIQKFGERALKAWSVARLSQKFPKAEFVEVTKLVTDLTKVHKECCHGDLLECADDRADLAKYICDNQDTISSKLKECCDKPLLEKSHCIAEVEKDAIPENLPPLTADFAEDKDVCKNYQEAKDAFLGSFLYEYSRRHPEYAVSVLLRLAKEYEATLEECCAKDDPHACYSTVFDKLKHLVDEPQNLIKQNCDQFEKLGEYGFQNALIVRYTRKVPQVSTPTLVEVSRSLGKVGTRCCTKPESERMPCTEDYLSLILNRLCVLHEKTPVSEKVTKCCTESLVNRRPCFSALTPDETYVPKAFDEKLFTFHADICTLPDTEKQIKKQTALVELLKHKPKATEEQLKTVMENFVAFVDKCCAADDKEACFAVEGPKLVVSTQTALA

Substance	tested on	assay	test system	conditions	how to read	endpoint	value
CC[C@H](C)[C@H](NC(=O)[C@H](Cc1ccc(O)cc1)NC(=O)[C@H](CO)NC(=O)[C@H](CCC(=O)O)NC(=O)[C@H](CC(N)=O)NC(=O)[C@H](CC(C)C)NC(=O)[C@H](C)NC(=O)[C@H](CCCCN)NC(=O)[C@@H](NC(=O)[C@@H](NC(=O)[C@H](CCC(N)=O)NC(=O)[C@H](CCC(N)=O)NC(=O)[C@H](CC(C)C)NC(=O)[C@H](CO)NC(=O)[C@H](CC(C)C)NC(=O)[C@H](CCSC)NC(=O)[C@H](CCC(=O)O)NC(=O)[C@H](Cc1ccc(O)cc1)NC(=O)[C@@H](NC(=O)[C@H](CC(C)C)NC(=O)[C@H](CC(=O)O)NC(=O)[C@H](CC(C)C)NC(=O)[C@H](CC(C)C)NC(=O)[C@@H](NC(=O)[C@@H](NC(=O)[C@H](CC(N)=O)NC(=O)[C@@H](NC(=O)[C@H](CCC(N)=O)NC(=O)[C@@H](NC(=O)[C@H](CC(C)C)NC(=O)[C@@H](N)CO)[C@@H](C)O)[C@@H](C)CC)[C@@H](C)O)[C@@H](C)O)[C@@H](C)O)C(C)C)C(C)C)C(=O)N[C@@H](CC(=O)O)C(=O)N[C@@H](CC(C)C)C(=O)N[C@@H](CCCCN)C(=O)N[C@@H](CCC(=O)O)C(=O)N[C@@H](CC(C)C)C(=O)O	MERS-CoV		Vero		relative to: CC50 over IC50	selectivity index	> 1670
Cc1cc(N)c2ccccc2[n+]1CCCCCCCCCC[n+]1c(C)cc(N)c2ccccc21	HEK293-RFP	cell viability				CC50	15.3 µM
O=[As]c1ccccc1 (stereo not drawn)	CHO	cell detachment				lowest concentration causing detachment	> 100 µM
CC(C)OP(=S)(OC(C)C)SCCNS(=O)(=O)c1ccccc1	HepaRG	refers to: CYP3A4		concentration not given, 24 h	relative to: untreated	mRNA level	> 5 fold
NC12CC3CC(CC(C3)C1)C2	Influenza A virus	viral replication, plaque size reduction	MDCK, A/Swine/Minnesota/34-0801/2011 (H1N2)			EC50	< 1 µM
CCOP(=S)(OCC)Oc1ccc([N+](=O)[O-])cc1			male ES1−/− mice	subcutaneous, 12.5 mg/kg, 6 h		surface body temperature	30 °C
Pillar[6]MaxQ	HEK293	cell viability, MTS		24 h		maximum tolerated concentration	≤ 0.03 mM
Fc1ccc(CNc2ncnc3ccc(F)cc23)cc1	HEK293-RFP	cell viability				CC50	19.3 µM
O=C(c1ccc(Cl)cc1)N1CCN(c2ccc3nncn3n2)CC1	ALB	binding, fluorescence quenching		pH 7.4		IC50	> 100 µM
CSCC[C@@H]1NC(=O)[C@H](CC(C)C)NC(=O)[C@H](CCCNC(=N)N)NC(=O)[C@H](CO)NC(=O)[C@@H]2CSSC[C@@H]3NC(=O)[C@H](CO)NC(=O)CNC(=O)[C@H]([C@@H](C)O)NC(=O)[C@H](CSSC[C@H](N)C(=O)N[C@@H](CCCCN)C(=O)NCC(=O)N[C@@H](CCCCN)C(=O)NCC(=O)N[C@@H](C)C(=O)N[C@@H](CCCCN)C(=O)N2)NC(=O)[C@H](CSSC[C@@H](C(N)=O)NC(=O)[C@H](CCCCN)NC(=O)CNC(=O)[C@H](CO)NC(=O)[C@H](CCCNC(=N)N)NC3=O)NC(=O)[C@H](CC(=O)O)NC(=O)[C@H](Cc2ccc(O)cc2)NC1=O	human erythrocytes	haemolysis		1 h, 37 °C, 50% haemolysis		HD50	4.2 mM and 4.23 mM
C[C@H](c1cccc2ccccc12)N1CCC(C(=O)NCc2cccc(F)c2)CC1	SARS-CoV		Vero E6	48 h	relative to: CC50 over EC50	therapeutic index	> 18.5
CNC(=O)Oc1cccc2c1OC(C)(C)C2			male ES1+/+ mice	subcutaneous, 1 mg/kg		duration of hypothermia	15 min
CCCSc1nc(N[C@@H]2C[C@H]2c2ccc(F)c(F)c2)c2nnn([C@@H]3C[C@H](OCCO)[C@@H](O)[C@H]3O)c2n1			STEMI patients, plasma	180 mg loading dose, 2 h, added: fentanyl		plasma concentration	245 ± 391 ng/mL
O=C(c1ccc(F)cc1F)N1CCN(c2ccc3nncn3n2)CC1	ALB	binding, fluorescence quenching		pH 7.4		IC50	> 100 µM
C[C@@H]1NC(=O)[C@@H]2CCCN2C(=O)[C@H](CC(N)=O)NC(=O)[C@H](Cc2c[nH]c3ccccc23)NC(=O)[C@@H]2CSSC[C@H](NC1=O)C(=O)NCC(=O)N[C@@H](CCCCN)C(=O)N[C@@H](Cc1c[nH]cn1)C(=O)N[C@@H](Cc1ccc(O)cc1)C(=O)N[C@H](C(N)=O)CSSC[C@H](NC(=O)CN)C(=O)N2		RP-HPLC	mouse serum 25%	50 µM, 6 h, 37 °C		degradation to non-isomer products	21.6 ± 0.65%

Excerpt of the above:
Substance	tested on	assay	test system	conditions	how to read	endpoint	value
Cc1cc(N)c2ccccc2[n+]1CCCCCCCCCC[n+]1c(C)cc(N)c2ccccc21	HEK293-RFP	cell viability				CC50	15.3 µM
O=[As]c1ccccc1 (stereo not drawn)	CHO	cell detachment				lowest concentration causing detachment	> 100 µM
